Published values from different studies.
Protocols differ between the studies behind these lines. ± gives the spread as reported.
IDO1: Indoleamine 2,3-dioxygenase 1 (IDO1, Homo sapiens, UniProt P14902)
UniProt P14902, sequence (whole entry, looked up): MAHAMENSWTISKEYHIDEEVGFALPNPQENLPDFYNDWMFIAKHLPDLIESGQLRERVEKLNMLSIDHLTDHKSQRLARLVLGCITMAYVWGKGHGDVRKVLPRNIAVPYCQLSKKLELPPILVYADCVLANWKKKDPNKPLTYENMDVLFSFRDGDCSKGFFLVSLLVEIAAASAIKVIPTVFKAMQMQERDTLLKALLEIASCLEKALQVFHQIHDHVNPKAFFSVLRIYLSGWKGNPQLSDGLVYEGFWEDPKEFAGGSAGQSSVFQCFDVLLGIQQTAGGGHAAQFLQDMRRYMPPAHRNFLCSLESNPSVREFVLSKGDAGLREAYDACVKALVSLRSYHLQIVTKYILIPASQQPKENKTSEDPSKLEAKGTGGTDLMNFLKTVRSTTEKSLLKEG
Genome polyprotein NS2B-NS3 protease: Genome polyprotein, NS2B-NS3 protease (Dengue virus type 2, UniProt P14340)
Aldo-keto reductase family 1 member B1: Aldo-keto reductase family 1 member B1 (Bos taurus, UniProt P16116)
KDM1A with CoREST: Lysine-specific histone demethylase 1A, with CoREST (KDM1A, Homo sapiens, UniProt O60341)
SCN10A: Sodium channel protein type 10 subunit alpha (SCN10A, Homo sapiens, UniProt Q9Y5Y9)
UniProt Q9Y5Y9, sequence (whole entry, looked up): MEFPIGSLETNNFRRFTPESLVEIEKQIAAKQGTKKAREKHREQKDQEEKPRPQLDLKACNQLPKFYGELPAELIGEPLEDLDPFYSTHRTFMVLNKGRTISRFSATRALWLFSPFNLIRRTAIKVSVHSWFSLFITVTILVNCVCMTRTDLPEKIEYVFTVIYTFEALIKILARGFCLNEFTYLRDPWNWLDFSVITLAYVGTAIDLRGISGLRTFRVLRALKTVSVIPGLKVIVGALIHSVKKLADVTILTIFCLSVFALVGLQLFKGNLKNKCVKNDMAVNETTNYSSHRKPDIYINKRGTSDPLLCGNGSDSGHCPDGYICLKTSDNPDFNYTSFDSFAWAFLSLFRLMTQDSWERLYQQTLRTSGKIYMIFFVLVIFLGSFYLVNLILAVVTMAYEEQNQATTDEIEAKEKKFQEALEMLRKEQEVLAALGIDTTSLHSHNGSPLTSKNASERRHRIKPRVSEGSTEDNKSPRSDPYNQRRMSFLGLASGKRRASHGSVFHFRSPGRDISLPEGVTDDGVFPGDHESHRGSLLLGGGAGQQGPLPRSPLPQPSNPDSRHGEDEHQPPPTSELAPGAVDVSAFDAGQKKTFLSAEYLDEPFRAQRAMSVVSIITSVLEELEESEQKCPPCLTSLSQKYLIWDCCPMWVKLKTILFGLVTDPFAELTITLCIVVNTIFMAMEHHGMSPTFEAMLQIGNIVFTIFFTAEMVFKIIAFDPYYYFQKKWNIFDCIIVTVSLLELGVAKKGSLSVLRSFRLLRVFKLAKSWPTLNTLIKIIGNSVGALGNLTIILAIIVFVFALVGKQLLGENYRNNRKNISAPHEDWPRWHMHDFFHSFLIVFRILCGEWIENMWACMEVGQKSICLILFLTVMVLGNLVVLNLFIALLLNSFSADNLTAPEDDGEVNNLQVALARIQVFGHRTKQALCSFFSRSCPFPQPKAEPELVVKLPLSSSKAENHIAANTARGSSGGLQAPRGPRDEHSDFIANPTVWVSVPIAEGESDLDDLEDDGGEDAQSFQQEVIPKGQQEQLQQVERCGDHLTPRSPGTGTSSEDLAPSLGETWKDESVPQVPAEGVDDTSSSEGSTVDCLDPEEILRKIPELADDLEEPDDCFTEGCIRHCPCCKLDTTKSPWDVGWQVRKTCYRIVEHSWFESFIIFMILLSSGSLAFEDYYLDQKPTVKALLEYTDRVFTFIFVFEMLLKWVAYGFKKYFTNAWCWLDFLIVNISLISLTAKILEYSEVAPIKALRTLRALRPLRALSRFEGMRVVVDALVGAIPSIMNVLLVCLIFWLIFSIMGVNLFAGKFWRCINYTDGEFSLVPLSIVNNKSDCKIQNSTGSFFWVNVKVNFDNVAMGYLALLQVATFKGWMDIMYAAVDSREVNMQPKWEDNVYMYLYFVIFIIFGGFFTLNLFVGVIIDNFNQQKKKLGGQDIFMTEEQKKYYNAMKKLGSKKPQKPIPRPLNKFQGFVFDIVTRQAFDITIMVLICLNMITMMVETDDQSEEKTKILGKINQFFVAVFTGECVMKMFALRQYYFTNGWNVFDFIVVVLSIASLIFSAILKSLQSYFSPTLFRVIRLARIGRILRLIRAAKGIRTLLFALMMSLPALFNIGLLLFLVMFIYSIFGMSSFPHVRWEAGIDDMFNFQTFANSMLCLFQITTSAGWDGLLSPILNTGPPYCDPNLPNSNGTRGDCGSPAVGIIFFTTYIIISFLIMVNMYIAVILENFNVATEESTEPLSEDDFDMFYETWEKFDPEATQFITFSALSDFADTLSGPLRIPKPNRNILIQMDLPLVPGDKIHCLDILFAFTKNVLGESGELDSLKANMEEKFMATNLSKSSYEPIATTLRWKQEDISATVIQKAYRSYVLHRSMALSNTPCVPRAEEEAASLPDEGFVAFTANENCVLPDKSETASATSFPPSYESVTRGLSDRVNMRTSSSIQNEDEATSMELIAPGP
PPO3: PPO3 (Agaricus bisporus, UniProt C7FF04)
UniProt C7FF04, sequence (whole entry, looked up): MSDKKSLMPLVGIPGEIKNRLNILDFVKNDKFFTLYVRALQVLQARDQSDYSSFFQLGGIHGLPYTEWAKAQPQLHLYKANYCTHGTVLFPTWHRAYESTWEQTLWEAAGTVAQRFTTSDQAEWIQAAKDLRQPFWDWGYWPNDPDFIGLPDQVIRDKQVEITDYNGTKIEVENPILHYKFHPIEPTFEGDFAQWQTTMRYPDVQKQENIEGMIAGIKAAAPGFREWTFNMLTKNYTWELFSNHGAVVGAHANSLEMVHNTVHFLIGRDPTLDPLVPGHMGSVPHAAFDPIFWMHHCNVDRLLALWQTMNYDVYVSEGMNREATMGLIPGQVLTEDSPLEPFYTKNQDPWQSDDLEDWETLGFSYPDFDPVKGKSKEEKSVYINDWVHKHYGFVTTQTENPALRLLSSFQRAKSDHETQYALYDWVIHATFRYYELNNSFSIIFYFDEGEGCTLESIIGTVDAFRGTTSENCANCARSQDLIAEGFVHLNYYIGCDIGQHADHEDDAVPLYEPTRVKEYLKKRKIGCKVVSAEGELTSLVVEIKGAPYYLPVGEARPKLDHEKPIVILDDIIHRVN
UniProt Q7Z1V1, sequence (whole entry, looked up): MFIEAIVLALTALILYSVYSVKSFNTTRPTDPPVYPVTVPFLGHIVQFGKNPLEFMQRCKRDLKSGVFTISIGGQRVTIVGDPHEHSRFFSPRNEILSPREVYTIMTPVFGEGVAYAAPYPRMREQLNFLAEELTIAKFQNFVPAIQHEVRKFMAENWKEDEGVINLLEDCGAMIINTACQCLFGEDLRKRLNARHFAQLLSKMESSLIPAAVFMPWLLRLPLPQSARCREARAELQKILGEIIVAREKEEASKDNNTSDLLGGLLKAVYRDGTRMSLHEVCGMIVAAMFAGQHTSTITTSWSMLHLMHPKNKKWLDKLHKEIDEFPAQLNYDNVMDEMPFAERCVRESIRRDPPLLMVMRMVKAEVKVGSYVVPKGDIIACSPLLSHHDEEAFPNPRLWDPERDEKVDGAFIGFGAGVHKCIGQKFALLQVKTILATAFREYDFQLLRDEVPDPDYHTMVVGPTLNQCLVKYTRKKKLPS
UniProt P08033, sequence (whole entry, looked up): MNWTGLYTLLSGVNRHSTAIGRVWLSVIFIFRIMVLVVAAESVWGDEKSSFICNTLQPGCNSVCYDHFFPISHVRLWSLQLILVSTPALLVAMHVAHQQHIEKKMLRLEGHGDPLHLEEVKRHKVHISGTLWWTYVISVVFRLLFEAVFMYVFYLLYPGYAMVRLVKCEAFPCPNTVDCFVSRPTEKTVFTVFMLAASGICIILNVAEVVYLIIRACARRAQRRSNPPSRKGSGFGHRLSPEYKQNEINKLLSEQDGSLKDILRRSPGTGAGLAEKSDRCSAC
UniProt P35520, sequence (whole entry, looked up): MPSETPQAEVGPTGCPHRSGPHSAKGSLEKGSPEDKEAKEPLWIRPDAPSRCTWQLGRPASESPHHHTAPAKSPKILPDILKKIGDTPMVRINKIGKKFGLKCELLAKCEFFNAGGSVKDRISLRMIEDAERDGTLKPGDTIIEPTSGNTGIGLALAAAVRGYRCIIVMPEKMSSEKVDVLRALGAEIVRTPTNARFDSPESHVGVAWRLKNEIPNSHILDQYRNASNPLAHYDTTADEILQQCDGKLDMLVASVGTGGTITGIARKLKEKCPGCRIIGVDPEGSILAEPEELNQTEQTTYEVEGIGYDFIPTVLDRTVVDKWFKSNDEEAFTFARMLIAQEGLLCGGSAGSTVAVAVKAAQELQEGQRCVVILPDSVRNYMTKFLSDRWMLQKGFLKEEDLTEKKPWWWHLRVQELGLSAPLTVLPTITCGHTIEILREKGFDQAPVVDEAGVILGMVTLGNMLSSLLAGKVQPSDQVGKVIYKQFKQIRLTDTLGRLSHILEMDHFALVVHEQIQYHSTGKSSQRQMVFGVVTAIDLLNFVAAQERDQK
UniProt P04406, sequence (whole entry, looked up): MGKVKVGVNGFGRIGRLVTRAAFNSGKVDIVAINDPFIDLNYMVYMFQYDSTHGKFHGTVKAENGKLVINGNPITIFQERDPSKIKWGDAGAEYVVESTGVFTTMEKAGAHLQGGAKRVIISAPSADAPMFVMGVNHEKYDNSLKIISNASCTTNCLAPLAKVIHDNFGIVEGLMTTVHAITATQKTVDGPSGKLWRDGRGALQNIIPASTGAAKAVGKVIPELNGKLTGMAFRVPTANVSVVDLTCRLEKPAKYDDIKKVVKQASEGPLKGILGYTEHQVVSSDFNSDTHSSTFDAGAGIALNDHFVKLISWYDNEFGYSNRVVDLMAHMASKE

COc1ccc(-c2ccc(F)c(C(=O)NCc3nnc4ccc(Cl)cn34)c2)cc1OC  inhibition (IDO1; kynurenine production, inhibitor, refers to: L-kynurenine; A-375; 10 µM, 48 h, together with: IFN-γ): 24 ± 5%
COc1ccc(C(=O)CN2CC(=Cc3ccc(Cl)cc3Cl)C(=O)C(=Cc3ccc(Cl)cc3Cl)C2)cc1  inhibition (Genome polyprotein NS2B-NS3 protease; protease activity; dengue virus 2; 50 µM): < 10%
COc1ccccc1C(Nc1nccs1)(c1ccccc1)c1ccccc1  inhibition (Gap junction beta-1 protein (Gjb1, Rattus norvegicus, UniProt P08033); gap junction channel current, inhibitor, dual whole-cell voltage clamp; N2a; 10 µM): < 20%
C/C(=N/N=c1/scc(-c2ccc([N+](=O)[O-])cc2)n1-c1c(C)cccc1C)c1ccc2c(c1)OCCO2  inhibition (Aldo-keto reductase family 1 member B1; enzyme activity, inhibitor, absorbance; 1 mM): 23%
COc1ccc(-c2ccc(F)c(C(=O)NCc3nnc4ccc5ccccc5n34)c2)cc1  inhibition (IDO1; kynurenine production, inhibitor, refers to: L-kynurenine; A-375; 10 µM, 48 h, together with: IFN-γ): > 50%
CCCCCCCC(=O)NCCCC[C@H](NC(=O)[C@H](C)NC(=O)[C@H](CC(C)C)NC(=O)[C@H](CCC(N)=O)NC(=O)[C@H](CCCCN)NC(=O)[C@H](CCCNC(=N)N)NC(=O)[C@@H]1CCCN1C(=O)[C@H](C)NC(=O)[C@H](CCCCN)NC(=O)CNC(=O)CNC(=O)[C@@H](NC(=O)[C@@H]1CCC(=O)NCCCC[C@H](NC(=O)[C@H](CCSC)NC(=O)[C@@H](NC(=O)[C@H](CCCNC(=N)N)NC(=O)[C@H](C)N)[C@@H](C)O)C(=O)N[C@@H]([C@@H](C)O)C(=O)N[C@@H](C)C(=O)N[C@@H](CCCNC(=N)N)C(=O)N[C@@H](CCCCN)C(=O)N1)[C@@H](C)O)C(N)=O  inhibition (KDM1A with CoREST; demethylase activity, inhibitor, fluorescence; 500 nM): 86 ± 3.1%
NNCc1ccc(O)c(O)c1O  inhibition (CBS (Homo sapiens, UniProt P35520); enzyme activity, inhibitor, fluorescence; 10 µM): 31%
CC(C)NCC(O)c1ccc(O)c(O)c1.O=C(O)C(O)C(O)C(=O)O (single isomer, unassigned; (+))  inhibition (SCN10A; sodium influx, inhibitor, FLIPR; HEK293; 10 µM, together with: deltamethrin 10 µM): 89%
O=C(N[C@@H](Cn1ccnc1)c1c(F)cc(-c2ccc(F)cc2)cc1F)c1ccc(-c2nnc(-c3ccccc3)o2)cc1  inhibition (CYP51 (Trypanosoma cruzi, UniProt Q7Z1V1); enzyme activity, inhibitor; 1 µM, 1 h, equimolar inhibitor/enzyme, together with: eburicol 50 µM): inhibited
COc1ccc(C(=O)CN2CC(=Cc3ccccc3C)C(=O)C(=Cc3ccccc3C)C2)cc1  inhibition (Genome polyprotein NS2B-NS3 protease; protease activity; dengue virus 2; 50 µM): < 10%
O=C1NCN(c2ccccc2)C12CCN(CCCC(c1ccc(F)cc1)c1ccc(F)cc1)CC2  inhibition (SCN10A; sodium influx, inhibitor, FLIPR; HEK293; 10 µM, together with: deltamethrin 10 µM): 100%
CC(C)(C)c1cnc(CSc2cnc(NC(=O)C3CCN(CC(=O)NCCOCCOCCOCCNc4cccc5c4C(=O)N(C4CCC(=O)NC4=O)C5=O)CC3)s2)o1 (centres unmarked)  inhibition (GSK3A (Homo sapiens, UniProt P49840); probe labeling, KiNativ live-cell profiling; MOLT-4 CRBN knockout; 0.25 µM): 33.8%
C/C(=N/N=c1/scc(-c2ccc(Cl)cc2)n1-c1ccc(F)cc1)c1ccc2c(c1)NC(=O)CO2  inhibition (Aldo-keto reductase family 1 member B1; enzyme activity, inhibitor, absorbance; 1 mM): 35.2%
Nc1ncnc2c1ncn2[C@@H]1O[C@H](COP(=O)(O)OP(=O)(O)OP(=O)(O)O)[C@@H](O)[C@H]1O  inhibition (HerA helicase, with SIR2 (Escherichia coli, UniProt A0ABF7PQ25); NADase activity; 0.5 or 1 mM, 30 min, pH 8.0, 33 °C, together with: ε-NAD+): ~50%
COc1cc(/C=C2\OC(=S)N(c3ccccc3)C2=O)ccc1O  inhibition (PPO3; enzyme activity, inhibitor; 25 µM, together with: L-tyrosine): < 0%
O=C(NCc1nnc2ccc3ccccc3n12)c1cccc2cn[nH]c12  inhibition (IDO1; kynurenine production, inhibitor, refers to: L-kynurenine; A-375; 10 µM, 48 h, together with: IFN-γ): > 50%
O.O=C(O)C(O)C(O)C(=O)O.O=C(c1ccc(F)cc1)C1CCN(CCn2c(=O)[nH]c3ccccc3c2=O)CC1  inhibition (SCN10A; sodium influx, inhibitor, FLIPR; HEK293; 10 µM, together with: deltamethrin 10 µM): 91.9%
O=C(NCc1nnc2ccc(Cl)cn12)c1cccc2cn[nH]c12  inhibition (IDO1; kynurenine production, inhibitor, refers to: L-kynurenine; A-375; 10 µM, 48 h, together with: IFN-γ): 23 ± 5%
O=C1/C(=C/c2ccc(F)cc2F)OC(=S)N1c1ccccc1  inhibition (PPO3; enzyme activity, inhibitor; 25 µM, together with: L-tyrosine): < 0%
NASC  inhibition (GAPDH (Homo sapiens, UniProt P04406); protein aggregation, turbidity; peptide; 50 µM, 48 h, 37 °C): 74.9 ± 3%
CC(CN(C)C)CN1c2ccccc2Sc2ccccc21.CC(CN(C)C)CN1c2ccccc2Sc2ccccc21.O=C(O)C(O)C(O)C(=O)O (centres unmarked)  inhibition (SCN10A; sodium influx, inhibitor, FLIPR; HEK293; 10 µM, together with: deltamethrin 10 µM): 79%
COc1ccc(/C=C2\OC(=S)N(c3ccccc3)C2=O)c(OC)c1  inhibition (PPO3; enzyme activity, inhibitor; 25 µM): 4.09%
C/C(=N/N=c1/scc(-c2ccc([N+](=O)[O-])cc2)n1-c1c(C)cccc1C)c1ccc2c(c1)NC(=O)CO2  inhibition (Aldo-keto reductase family 1 member B1; enzyme activity, inhibitor, absorbance; 1 mM): 18%
O=C(NCc1nnc2ccc(C(F)(F)F)cn12)c1ccc(O)c(Br)c1  inhibition (IDO1; kynurenine production, inhibitor, refers to: L-kynurenine; A-375; 10 µM, 48 h, together with: IFN-γ): 40 ± 8%
Cc1ccnc2c1NC(=O)c1cccnc1N2C1CC1  inhibition (Gag-Pol polyprotein, reverse transcriptase (gag-pol, Human immunodeficiency virus type 1 group M subtype B, UniProt P04585); enzyme activity, inhibitor, ELISA; 10 µM): > 97%
Cn1cc(-c2ccc3c(c2)OCO3)c2ccc(Cl)nc21  inhibition (Gag-Pol polyprotein, integrase (gag-pol, Human immunodeficiency virus type 1 group M subtype B, UniProt P04585); strand transfer; wild type; 10 µM): 54%
COc1cccc(CNC(=O)c2cnn(Cc3ccc(Cn4ccccc4=O)cc3)c2)c1  inhibition (Plasma kallikrein (KLKB1, Homo sapiens, UniProt P03952); enzyme activity, inhibitor; 0.1 µM): > 30%
C/C(=N/N=c1/scc(-c2ccc(Cl)cc2)n1-c1ccccc1)c1ccc2c(c1)NC(=O)CO2  inhibition (Aldo-keto reductase family 1 member B1; enzyme activity, inhibitor, absorbance; 1 mM): 16.8%
COc1cc(/C=C2\OC(=S)N(c3ccccc3)C2=O)cc(OC)c1O  inhibition (PPO3; enzyme activity, inhibitor; 25 µM): 10.2%
COc1ccccc1N1CCN(CC(O)COc2cccc3ccccc23)CC1.Cl.Cl (centres unmarked)  inhibition (SCN10A; sodium influx, inhibitor, FLIPR; HEK293; 10 µM, together with: deltamethrin 10 µM): 91.4%
CSCC[C@H](NC(=O)[C@@H](NC(=O)[C@H](C)NC(=O)[C@H](C)N)[C@@H](C)O)C(=O)N[C@H]1CCCCNC(=O)CC[C@@H](C(=O)N[C@H](C(=O)NCC(=O)NCC(=O)N[C@@H](CCCCN)C(=O)N[C@@H](C)C(=O)N2CCC[C@H]2C(=O)N[C@@H](CCCNC(=N)N)C(=O)N[C@@H](CCCCN)C(=O)N[C@@H](CCC(N)=O)C(=O)N[C@@H](CC(C)C)C(=O)N[C@@H](C)C(=O)O)[C@@H](C)O)NC(=O)[C@H](CCCCN)NC(=O)[C@H](CCCNC(=N)N)NC(=O)[C@H](C)NC(=O)[C@H]([C@@H](C)O)NC1=O  inhibition (KDM1A with CoREST; demethylase activity, fluorescence; 500 nM): 25 ± 8%
O=C(NCc1nnc2ccc(C(F)(F)F)cn12)c1c(F)ccc(Cl)c1Cl  inhibition (IDO1; kynurenine production, inhibitor, refers to: L-kynurenine; A-375; 10 µM, 48 h, together with: IFN-γ): 11 ± 1%
COc1ccc(C(=O)CN2CC(=Cc3ccc(F)cc3)C(=O)C(=Cc3ccc(F)cc3)C2)cc1  inhibition (Genome polyprotein NS2B-NS3 protease; protease activity; dengue virus 2; 50 µM): < 10%
C/C(=N/N=c1/scc(-c2ccc([N+](=O)[O-])cc2)n1-c1ccc(F)cc1)c1ccc2c(c1)NC(=O)CO2  inhibition (Aldo-keto reductase family 1 member B1; enzyme activity, inhibitor, absorbance; 1 mM): 31.7%
O=C(NCc1nnc2ccc(C(F)(F)F)cn12)c1cccc2cn[nH]c12  inhibition (IDO1; kynurenine production, inhibitor, refers to: L-kynurenine; A-375; 10 µM, 48 h, together with: IFN-γ): 35 ± 6%
COc1cccc(-n2c(-c3ccc(Cl)cc3)cs/c2=N/N=C(/C)c2ccc3c(c2)NC(=O)CO3)c1  inhibition (Aldo-keto reductase family 1 member B1; enzyme activity, inhibitor, absorbance; 1 mM): 5.16%
CCOc1cc(/C=C2\OC(=S)N(c3ccccc3)C2=O)ccc1O  inhibition (PPO3; enzyme activity, inhibitor; 25 µM, together with: L-tyrosine): < 0%
COc1ccccc1Cn1cc(COC(=O)NC2CCCCC2)nn1  inhibition (Faah (Mus musculus, UniProt O08914); enzyme activity; CD1 mice, brain, ex vivo; intraperitoneal, 3 mg/kg, 1 h; reference: vehicle): 78%

Repeated from above:
O=C1NCN(c2ccccc2)C12CCN(CCCC(c1ccc(F)cc1)c1ccc(F)cc1)CC2  inhibition (SCN10A; sodium influx, inhibitor, FLIPR; HEK293; 10 µM, together with: deltamethrin 10 µM): 100%
CC(C)(C)c1cnc(CSc2cnc(NC(=O)C3CCN(CC(=O)NCCOCCOCCOCCNc4cccc5c4C(=O)N(C4CCC(=O)NC4=O)C5=O)CC3)s2)o1 (centres unmarked)  inhibition (GSK3A (Homo sapiens, UniProt P49840); probe labeling, KiNativ live-cell profiling; MOLT-4 CRBN knockout; 0.25 µM): 33.8%
C/C(=N/N=c1/scc(-c2ccc(Cl)cc2)n1-c1ccc(F)cc1)c1ccc2c(c1)NC(=O)CO2  inhibition (Aldo-keto reductase family 1 member B1; enzyme activity, inhibitor, absorbance; 1 mM): 35.2%
Nc1ncnc2c1ncn2[C@@H]1O[C@H](COP(=O)(O)OP(=O)(O)OP(=O)(O)O)[C@@H](O)[C@H]1O  inhibition (HerA helicase, with SIR2 (Escherichia coli, UniProt A0ABF7PQ25); NADase activity; 0.5 or 1 mM, 30 min, pH 8.0, 33 °C, together with: ε-NAD+): ~50%
